Measurements from different studies.
A part holds a random share of what one study measured. Values joined by “and” are separate records of one study, mostly repeats; a detail may differ.

Study 1 — technique: RNA Bind-n-Seq; molecule type: RNA; sample: in vitro; tested at: 200 nM; notes: whole 134-nt RNA, ends assumed; together with: 150 mM KCl; baseline: input library; reading: higher = stronger binding
Target: Ras GTPase-activating protein-binding protein 1, full length (G3BP1, Homo sapiens, UniProt Q13283)
UniProt Q13283, sequence (whole entry, looked up): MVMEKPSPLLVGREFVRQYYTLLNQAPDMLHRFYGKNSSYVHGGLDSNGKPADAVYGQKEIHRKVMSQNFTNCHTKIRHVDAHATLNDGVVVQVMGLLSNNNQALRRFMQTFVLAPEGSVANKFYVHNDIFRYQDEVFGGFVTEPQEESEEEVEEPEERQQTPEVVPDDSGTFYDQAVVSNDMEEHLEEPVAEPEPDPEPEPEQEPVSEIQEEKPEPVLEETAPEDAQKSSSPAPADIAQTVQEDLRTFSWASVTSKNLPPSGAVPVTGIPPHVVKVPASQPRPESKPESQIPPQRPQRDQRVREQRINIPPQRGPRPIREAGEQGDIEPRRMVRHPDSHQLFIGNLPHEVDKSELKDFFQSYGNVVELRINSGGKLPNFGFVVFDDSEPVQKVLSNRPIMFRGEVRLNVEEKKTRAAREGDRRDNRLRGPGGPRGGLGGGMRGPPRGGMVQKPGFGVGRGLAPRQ
Strand	log2 enrichment
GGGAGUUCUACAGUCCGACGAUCGUCCUGUGCUACACAUCGUAUGUACCGAAUCGGGGAGGGGUUUGGGGAAAAAAAGGGGAAAGUAUUAUGUUACGCCGUUCGGAUCUGCACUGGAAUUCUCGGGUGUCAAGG	0.3
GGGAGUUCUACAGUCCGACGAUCCCUGUGCUACACAUCGUAUGUACCGAAUCGGCCCCCCCGGCCCCCCCGGCCCCCCCGGGGAAAGUAUUAUGUUACGCCGUUCGGAUCUGCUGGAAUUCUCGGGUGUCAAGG	0.0726
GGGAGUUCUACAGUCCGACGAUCCACAGACAACACGCACCCACACAGACACAGAGGGAAGGGGUUGGGAUGGGGACAGGGUGCACAGCGGGGCGGGGUAGGACCCCAGCCCCUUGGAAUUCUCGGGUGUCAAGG	1.77
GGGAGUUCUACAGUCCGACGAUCUGUGCGGGAGACAGGCGCCAACGGCACCUCUUUCAGUGUCCGCAAGACAGCCUACUGCGACAUCCACACGCCUCCAGGUUCAGCACGCCGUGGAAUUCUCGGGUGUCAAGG	0.0888
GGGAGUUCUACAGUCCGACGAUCUGUGAGCUGACUUUUUGGAUCAACUUUACUUUUCCCUUCUUUUUAGGCAAUUGAAGAUGAAGGUGGUAAUCCUGACGAAAUUGAAAUUACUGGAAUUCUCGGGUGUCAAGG	-0.109

Study 2 — technique: universal PBM; molecule type: double-stranded DNA, one strand shown; sample: in vitro; tested at: 600 nM; reading: higher = stronger binding
Target: Sal-like protein 4, full length isoform A (SALL4, Homo sapiens, UniProt Q9UJQ4, residues 1-1053)
UniProt Q9UJQ4, sequence (whole entry, looked up): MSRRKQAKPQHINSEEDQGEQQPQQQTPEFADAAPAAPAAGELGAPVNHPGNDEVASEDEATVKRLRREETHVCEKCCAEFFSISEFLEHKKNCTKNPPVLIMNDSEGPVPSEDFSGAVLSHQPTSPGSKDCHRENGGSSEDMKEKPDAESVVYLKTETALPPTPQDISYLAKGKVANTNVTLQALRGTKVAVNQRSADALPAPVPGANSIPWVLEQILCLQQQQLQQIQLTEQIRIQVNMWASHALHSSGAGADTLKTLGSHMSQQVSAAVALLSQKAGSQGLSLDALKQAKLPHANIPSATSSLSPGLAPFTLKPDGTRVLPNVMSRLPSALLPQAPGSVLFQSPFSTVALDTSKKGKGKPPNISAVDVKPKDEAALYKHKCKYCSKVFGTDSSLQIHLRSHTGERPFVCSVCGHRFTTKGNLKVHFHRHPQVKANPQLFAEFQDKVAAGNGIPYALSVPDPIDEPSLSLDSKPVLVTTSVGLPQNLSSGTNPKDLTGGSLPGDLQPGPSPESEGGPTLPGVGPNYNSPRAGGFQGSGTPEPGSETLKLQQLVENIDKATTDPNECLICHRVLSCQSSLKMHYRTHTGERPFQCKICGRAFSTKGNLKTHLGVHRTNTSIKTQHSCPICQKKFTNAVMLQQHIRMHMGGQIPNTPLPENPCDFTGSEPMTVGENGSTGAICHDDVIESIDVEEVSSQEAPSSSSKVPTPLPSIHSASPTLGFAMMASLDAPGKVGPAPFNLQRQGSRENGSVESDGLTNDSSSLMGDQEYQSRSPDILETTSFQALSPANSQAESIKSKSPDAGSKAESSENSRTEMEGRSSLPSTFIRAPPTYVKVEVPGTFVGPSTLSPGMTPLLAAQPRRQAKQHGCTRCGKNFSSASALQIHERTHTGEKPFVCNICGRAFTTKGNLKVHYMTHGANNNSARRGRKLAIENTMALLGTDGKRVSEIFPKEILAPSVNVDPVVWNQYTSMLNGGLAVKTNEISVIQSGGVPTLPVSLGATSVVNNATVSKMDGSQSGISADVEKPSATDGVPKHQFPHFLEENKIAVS
Notes: 8-mer, flanks averaged, mean of replicates
Strand	E-score
GTGGAAAA	0.179
ATTCTCTA	0.192
AAGTTGTA	0.264
CTGTATGC	0.0422
AAGCCTAA	0.0317
CGCCCCCA	-0.27

Study 3 — technique: protein-binding microarray; molecule type: double-stranded DNA, one strand shown; sample: in vitro; tested at: 940 nM top; notes: 60-bp whole probe; together with: salmon DNA 0.4 mg/ml; baseline: random background probes; reading: higher = stronger binding; all sequences stand within: GCCTAGCAC … GTCTTGATTCGCTTGACGCTGCTG
Target: Interferon regulatory factor 5, full length, phosphomimetic (IRF5, Homo sapiens, UniProt Q13568-2, residues 1-514, S451D/S453D/S456D/S462D)
Strand	fitted relative affinity
GACGGACTTGGACTGGGGACGTGCTAG	-0.567 z-score
TCACGCTTCATCTCCCAGACTGTGCTA	0.502 z-score
TTTCATTTTTTTTTTCATCAGTGCTAG	6.55 z-score
TTAGGTTTCGGTGTCGGTTAGTGCTAG	13.6 z-score
GACGGTATCTGTATCGGGACGTGCTAG	2.31 z-score

Further values, each from its own experiment
Substance	target	assay	test system	conditions	how to read	measurement	result
PhoQ, residues 284 288 289 292 302 303 AAQSYM	PhoP, residues 12 14 15 18 19 LWHCS (Escherichia coli, UniProt P23836)	Sort-seq, item: YFP reporter	E. coli	PhoQ-PhoP variant library, together with: 10 µM Mg2+	baseline: high Mg2+ state, higher = stronger signaling	fold induction	13.2 and 19.6

A few entries again (study 3):
Strand	fitted relative affinity
GACGGACTTGGACTGGGGACGTGCTAG	-0.567 z-score
TCACGCTTCATCTCCCAGACTGTGCTA	0.502 z-score
